Results collected from several papers.
Each line is one published result; not all experiments were run side by side. ± gives the spread as reported.
Action: substrate
mtlD E292A: mtlD (Pseudomonas fluorescens, UniProt O08355, E292A)

Molecule | target | test | test system | setting | Km
CCCCC/C=C\C/C=C\C/C=C\C/C=C\CCCC(=O)NCCO | Faah (Rattus norvegicus, UniProt P97612) | – | Sprague-Dawley rats, control, rat hippocampus membranes | – | 0.53 ± 0.09 µM
COc1cc(-c2ccc(N)c(OC)c2)ccc1N | Moringa oleifera peroxidase | – | – | together with: H2O2 1 mM | 19.4 ± 41 µM
CC(=O)C(=O)O | dxs (Escherichia coli, UniProt P77488, H299A) | – | – | – | 1100 µM
NC(=O)c1ccc[n+]([C@@H]2O[C@H](COP(=O)(O)OP(=O)(O)OC[C@H]3O[C@@H](n4cnc5c(N)ncnc54)[C@H](O)[C@@H]3O)[C@@H](O)[C@H]2O)c1 | mtlD E292A | – | – | – | 71 ± 5 µM
PLARTLSVAGLPGKK | Calcium-dependent protein kinase 10 (CPK10, Arabidopsis thaliana, UniProt Q9M9V8) | – | peptide | 12 min, room temperature, together with: ATP 50 µM | 238 µM
OCCSSCCO | glutaredoxin (Alkaliphilus oremlandii, UniProt A8MIN3, C16S) | – | – | – | 900 ± 200 µM
O=[N+]([O-])c1ccc(Cl)c([N+](=O)[O-])c1 | Prostaglandin D synthase (Clonorchis sinensis, UniProt G7YGL2) | – | – | – | 544 µM
GGNWTT | UDP-glucose:protein N-beta-glucosyltransferase (Actinobacillus pleuropneumoniae serotype 5b, UniProt A3N2T3, D215R/Q469A) | – | peptide | 15 min, pH 8.0, 37 °C, D215R mutant, together with: UDP-Glc 100 mM | 8450 ± 990 µM
NC(=O)c1ccc[n+]([C@@H]2O[C@H](COP(=O)(O)OP(=O)(O)OC[C@H]3O[C@@H](n4cnc5c(N)ncnc54)[C@H](O)[C@@H]3O)[C@@H](O)[C@H]2O)c1 | chimeric galactose dehydrogenase/LDH (Pseudomonas fluorescens/Geobacillus stearothermophilus) | spectrophotometry | – | pH 8.5, room temperature, fusion site in galDH, together with: galactose 16.6 mM | 130 µM
CN(CCCC(=O)c1cccnc1)N=O | AKR1C4 (Homo sapiens, UniProt P17516) | – | – | – | 800 ± 100 µM
NCCc1c[nH]c2ccc(O)cc12 | serotonin transporter (Echinococcus granulosus, UniProt W6UF91) | – | – | – | 2.2 ± 0.8 µM
NC(=O)C1=CN([C@@H]2O[C@H](COP(=O)(O)OP(=O)(O)OC[C@H]3O[C@@H](n4cnc5c(N)ncnc54)[C@H](O)[C@@H]3O)[C@@H](O)[C@H]2O)C=CC1 | mtlD E292A | – | – | – | 7 ± 1 µM
O=[N+]([O-])c1ccc(O)c(Cl)c1 | 4-nitrophenol 4-monooxygenase/4-nitrocatechol 2-monooxygenase, oxygenase component (npcA, Rhodococcus opacus, UniProt Q6F4M8) | – | – | – | 21.9 ± 3.34 µM

Excerpt of the above:
Molecule | target | test | test system | setting | Km
CC(=O)C(=O)O | dxs (Escherichia coli, UniProt P77488, H299A) | – | – | – | 1100 µM
